Results gathered from unrelated publications.
Numbered parts are unrelated; each lists some results of a single study. Positions count from the first letter of the parent shown.

Series 1
Target: Sal-like protein 4, full length isoform B (SALL4, Homo sapiens, UniProt Q9UJQ4-2, residues 1-616)
Technique: universal PBM
Molecule type: double-stranded DNA, one strand shown
Sample: in vitro
Tested at: not given
Setting: 8-mer, flanks averaged, mean of replicates
Reading: higher = stronger binding
Target sequence (chain): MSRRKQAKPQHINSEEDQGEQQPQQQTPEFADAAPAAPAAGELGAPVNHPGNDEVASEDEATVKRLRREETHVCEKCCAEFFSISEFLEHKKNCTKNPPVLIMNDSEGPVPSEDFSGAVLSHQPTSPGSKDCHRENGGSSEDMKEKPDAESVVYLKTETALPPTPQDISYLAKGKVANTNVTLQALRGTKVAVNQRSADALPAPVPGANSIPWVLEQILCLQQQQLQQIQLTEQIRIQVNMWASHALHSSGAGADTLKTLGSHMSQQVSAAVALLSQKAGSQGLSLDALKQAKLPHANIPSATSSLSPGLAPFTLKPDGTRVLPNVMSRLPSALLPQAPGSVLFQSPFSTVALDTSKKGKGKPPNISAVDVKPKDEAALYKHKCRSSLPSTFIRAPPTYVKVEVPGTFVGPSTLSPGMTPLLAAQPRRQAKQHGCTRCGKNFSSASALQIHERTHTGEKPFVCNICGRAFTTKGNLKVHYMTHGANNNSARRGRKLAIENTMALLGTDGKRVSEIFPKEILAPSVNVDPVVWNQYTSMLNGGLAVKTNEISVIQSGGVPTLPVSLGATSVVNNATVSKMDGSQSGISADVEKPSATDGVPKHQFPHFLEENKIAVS
| Strand | E-score |
| --- | --- |
| TAAGCGGA | -0.0649 |
| AAGAAACC | -0.122 |
| AGCTACGC | -0.175 |
| AGGCTATG | -0.0372 |
| GAACCTGA | -0.128 |
| AGATTTGC | 0.0745 |
| ACAGTACT | 0.0521 |
| CCAGTCCG | -0.325 |
| CCATACAA | 0.188 |
| AAAGCCTA | 0.0471 |
| ATGAGAGG | -0.11 |
| GCGACCCC | -0.243 |
| CATCAAGA | 0.0696 |
| ATTAACGG | 0.115 |
| AGGTGGTG | -0.112 |
| CCTTAACA | 0.157 |
| AAAACGCT | 0.144 |
| ACATCTTG | 0.0947 |
| CCCGCATC | -0.21 |
| CTTGTAAA | 0.196 |
| ACTCCTCT | -0.0654 |
| TCATCACA | -0.0356 |
| GAAATTGC | 0.103 |
| AAGATGGG | -0.0795 |
| CGACTTCC | -0.162 |

Series 2
Target: TAR DNA-binding protein 43, full length, His tag (TARDBP, Homo sapiens, UniProt Q13148, residues 1-414)
Technique: RNA Bind-n-Seq
Molecule type: RNA
Sample: in vitro
Tested at: 20 nM
Setting: 6-mer, flanks averaged, single round
Together with: 150 mM KCl
Baseline: input library
Reading: higher = stronger binding
| Strand | 6-mer enrichment (R) |
| --- | --- |
| UAAUGG | 0.933 |
| UAUAGC | 0.628 |
| GCUUCU | 0.601 |
| GCGAAG | 1.87 |
| CUCUUG | 0.622 |
| UUAACA | 0.586 |
| AGUUUG | 0.836 |
| ACAUAA | 0.671 |
| GAGGUG | 3.47 |
| CCGAUC | 0.615 |
| GCUACG | 0.963 |
| AUAUAA | 0.713 |
| AUAUCU | 0.548 |
| AACACA | 0.667 |
| CAUGCG | 0.981 |
| GCCUCG | 0.843 |

Series 3
Target: ABI1, truncated, D143A, DHFR fusion (Arabidopsis thaliana)
Technique: DHFR PCA, deep sequencing
Sample: yeast
Setting: methotrexate growth selection, single substitutions
Together with: (+)-ABA 17 µM
Baseline: wild-type fitted maximum
Reading: higher = stronger binding
Parent: PYL1, truncated, DHFR fusion (Arabidopsis thaliana); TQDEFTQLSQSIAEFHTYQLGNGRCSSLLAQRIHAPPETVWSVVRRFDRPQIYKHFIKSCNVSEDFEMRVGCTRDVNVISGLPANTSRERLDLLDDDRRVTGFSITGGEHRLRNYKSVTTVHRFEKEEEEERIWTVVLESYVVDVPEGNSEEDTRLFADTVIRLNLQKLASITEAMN
| Variant | relative binding score [%] |
| --- | --- |
| P146M | 17.6 |
| K54H | 0.9 |
| V100H | 5.57 |
| R155F | -1.39 |
| D48S | 23 |
| S140N | 2.47 |
| E147D | 85.4 |
| T119L | 71.9 |
| E129Y | 78.4 |
| S63L | 67.5 |
| D92R | 5.21 |
| I52V | 93 |

Series 4
Target: Interferon regulatory factor 7, full length, phosphomimetic (IRF7, Homo sapiens, UniProt Q92985, residues 1-503, S471D/S472D/S475D/S476D/S477D/S483D/S484D/S487D)
Chain of UniProt Q92985 (whole entry, unmodified, looked up): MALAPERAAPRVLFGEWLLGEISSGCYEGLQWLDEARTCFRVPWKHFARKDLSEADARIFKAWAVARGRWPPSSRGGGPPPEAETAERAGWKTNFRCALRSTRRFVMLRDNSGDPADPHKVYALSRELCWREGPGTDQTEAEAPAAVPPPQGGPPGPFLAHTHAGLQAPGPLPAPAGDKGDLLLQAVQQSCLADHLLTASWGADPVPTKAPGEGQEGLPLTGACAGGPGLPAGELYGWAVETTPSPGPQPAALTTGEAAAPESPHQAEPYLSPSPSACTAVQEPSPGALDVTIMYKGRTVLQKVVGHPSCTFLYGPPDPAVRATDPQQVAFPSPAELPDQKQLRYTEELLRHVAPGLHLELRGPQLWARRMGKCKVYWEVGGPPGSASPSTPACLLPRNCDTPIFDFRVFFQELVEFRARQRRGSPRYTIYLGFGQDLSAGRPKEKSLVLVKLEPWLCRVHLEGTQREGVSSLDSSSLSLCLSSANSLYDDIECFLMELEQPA
Technique: protein-binding microarray
Molecule type: double-stranded DNA, one strand shown
Sample: in vitro
Tested at: 2200 nM top
Setting: 60-bp whole probe
Together with: salmon DNA 0.4 mg/ml
Baseline: random background probes
Reading: higher = stronger binding
Constant ends, left off below: GCCTAGCAC … GTCTTGATTCGCTTGACGCTGCTG
| Strand | fitted relative affinity [z-score] |
| --- | --- |
| TTAAATCTCAGTCTCGATTAGTGCTAG | 0.249 |
| TCATTTTCATTTTCCAAACTGTGCTAG | 8.02 |
| TTAGGACTGGCTTTCGGTTAGTGCTAG | 3.88 |
| TCACCCCTCTCATTCCAACTGTGCTAG | 1.73 |
| TCAATGTTCCCTATTTAACTGTGCTAG | 1.68 |
| GACGATATCAGTATCGAGCCGTGCTAG | 0.209 |
| TTCTTGCGGAGTTTCTTGCAGTGCTAG | 0.396 |
| TCACAGCTCCCTTTCTCACTGTGCTAG | 1.39 |
| TACAGCAGGGAGGGAGGCACGTGCTAG | -0.638 |
| TCACCTTTTTTTTTTTTACTGTGCTAG | 1.86 |
| ATACCTTAGGTTTTCTGGTTGTGCTAG | 2.94 |
| TTAGGTTTCTTTTCCCTTTAGTGCTAG | 4.14 |
| GACGGTATCGGTCTCGGGACGTGCTAG | 0.00494 |
| GAGGGTATCGACTTTCGGGACGTGCTA | 2.52 |

Series 5
Target: RING finger protein unkempt homolog, zinc fingers 1-6, GST-SBP tag (UNK, Homo sapiens, UniProt Q9C0B0, residues 30-357)
Chain of UniProt Q9C0B0 (30-357, looked up): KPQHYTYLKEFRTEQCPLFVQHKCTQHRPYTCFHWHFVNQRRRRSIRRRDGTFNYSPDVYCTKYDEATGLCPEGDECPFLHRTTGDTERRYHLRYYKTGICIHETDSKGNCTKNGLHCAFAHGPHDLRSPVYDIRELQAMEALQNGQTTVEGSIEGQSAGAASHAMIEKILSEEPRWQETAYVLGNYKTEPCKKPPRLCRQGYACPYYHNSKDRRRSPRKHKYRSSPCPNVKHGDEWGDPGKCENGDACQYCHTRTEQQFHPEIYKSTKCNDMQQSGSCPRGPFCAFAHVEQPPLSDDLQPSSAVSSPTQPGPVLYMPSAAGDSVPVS
Technique: RNA Bind-n-Seq
Molecule type: RNA
Sample: in vitro
Tested at: not given
Setting: RNA with constant flanks, human and mouse sites, ends assumed
Baseline: input RNA pool
Reading: higher = stronger binding
Constant ends, left off below: GGGAGUUCUACAGUCCGACGAUC … CAACAGAGGAUUGAGCAUCA
| Strand | bound/input enrichment |
| --- | --- |
| ACUAUCUGAAGAUUUCCAUUUGUCAAAAAGUAAUGAUUUCUUGAUAAUUGUGUAGUAAUGUUUUUUAGAACCCAGCAGUUACCUUAAAGCUGAAUUUAUAUUUAGUAACUUCUGUGUUAA | 2.58 ratio |
| AUCAACGUUCGGAAAGGCAGCAUCUCGGGGAUUAGCAUGGUCCUGGCAGCCUACGUGGUUUUCAGCUACUGCAUUUCUUACAAGGAACUCAAACAUGAGCGGCGACGCAAGUACCACUGA | 0.107 ratio |
| AUCAGAAGAGUGAAAUCUCAUAAGGAAUUUUUGAAUAAAACAACACACCAGCUUUUGUUUGUUAGACAUCAGUUUAAAAUAGCUUUCUUCAGUGAGUUGAAACAAGAUACACAAAACGCC | 0.848 ratio |
| GUCUGCAGUGAGUUCUGUCACUGCUGGAGAAAAGUGUGUUUUGACUUCUCAGAGAACGUCACUAGGGUCUGUCCAGCAGCACCCAAAGACUCAGUAGUGACAAGGCUGAGUUCUUGCAGG | 0.176 ratio |
| GGAAUUCAACCUGUUAUAGAUAAAUUAAGGGAACAUGAAAAUUCAACACUAGACAGGCAUUUAGACUUUUUUGAAAUGCUCCGAAAUGAAGAUGAACUAGAAUUUGCCAAAAGAUUUGAA | 2.39 ratio |
| UUGCUGUCCUCUUGCUGAUGGCUGCUAGAUUUAAUUUAUUUGCUUCCCUCCUUGAUAACAUUAGUGAUUCUGAUUUCAGUUUUUCAUUUGUUUUGCUUUUGUUUUUUUCCUCGUGUAACA | 3.26 ratio |
| GGGAUGACAAAAGUAUUCCUUUUUCAGAUGCCCCAAGGAAGCCACCAUGUGGGGCUUCACAUGCUCCAGCCAGGUUGUCCAAGCAGGUGCCGUCCACCACACUGCUGGCUGCUCUUGCAC | 0.133 ratio |
| UCGGUACUUGAUUCAGCUCUUCAUCCACCACCCCGUGGACCUUUUCCUCCAGGAGAUAUUUUUAGUCAACCAGAAAGACCUUUUUUAGCUCCUGGAAGACAAAGCGUAGACAAUGUUACU | 0.303 ratio |

Series 6
Target: RNA binding protein fox-1 homolog 2, RRM domain, GST-SBP tag (RBFOX2, Homo sapiens, UniProt O43251-10, residues 100-194)
Technique: RNA Bind-n-Seq
Molecule type: RNA
Sample: in vitro
Tested at: 365 nM
Setting: natural RNA segment, single round, ends assumed
Baseline: no-protein control
Reading: higher = stronger binding
Constant ends, left off below: GGGAGUUCUACAGUCCGACGAUC … UGGAAUUCUCGGGUGCCAA
Residues (chain): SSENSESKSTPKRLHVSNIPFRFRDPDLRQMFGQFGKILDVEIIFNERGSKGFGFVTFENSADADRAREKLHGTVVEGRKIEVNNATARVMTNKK
| Strand | RBNS enrichment (R) |
| --- | --- |
| UUUAUUGUACCUAUGCCUGGGUGCUAAAGGUCAUGUAAGGACUAGUUCCUUUGAGGAGGACCCCCUGGGAGCAGUCAAGCUGGAAGAUAGCUACCUGCAAGACACUACUG | 0.321 |
| UUUAGCCGUGUUUUGACUGUCUAGUAUUUCUAAAUAUUUCUCUGUAUCCUGGAUGGUCUCAUAACGUUGGCCAUAAUAGGUACAUAAUCAGAAGAUCACUUAGACAACAU | 0.319 |
| CUCGUCACAAAUGCCAAACUGACUGCUCUUUCCCAGUGCCCAGUGCUGUCUUUUGCUUCUGUUUGAUUUGGUCUGCGUAUCUUUUAAUGUGUCUGUUUUGUUUUGUUUGU | 2.21 |
| CCCCAAGCCUCCACGUCUAACGGGCUCCCGAAGUGCUGCUGCUUCCAAGCAAGGAUUUUGCACCGCAGCUGCUUGGAUGUAUUUAAACUCCUCAUGGUUCAGAUAGCUAU | 1.09 |
| GAUGUGUCCUUGUAUGCUGGUGGAUUCUUCUAGAAAGUAUUUUCUAUCUUGGUUGUAUUUGCUGCCAUCUGUCUUAUUCCCACAUUUCCCUACAGCCCAUAGUAGUGUCA | 0.825 |
| UGUGAUAUUAUAAAGGCAACACUUGUGACACUUCCACUAGCUAGGUGUGUAACCCUGGGUAGGCCACUCCAUCUCCUAGGUGUGUAACCCUGGACAGGACAUUUCACCUG | 0.421 |
| GCAACAACGAUCCUAUUUGUACCCUAGACCCAGAGACUCAGGCCUCCAGCUCCUGGGAUCCAGGAGUCCAUCCCCAGUCCCCUGGGAUCCUAGUGUCCCUCCCUCCUGCA | 1.16 |
| ACCAGGGAGUUUGGUGAAGCUAAAGGAGUCAUAGGAGACUUGCAGUGGCUGGAUGUUCUCACGCCUGGCUCCGUUCUGCCUGUCUGGAGGCCUGGUCUGCUGGUCCACCU | 0.385 |
| ACUGUAGUAUUGGUGUCAUGGGAAUGUACGUUAUUUCCAAAGUCAUUUCAUUAAAGAUGAAAACUUUAUUUCUUCUGUGAUUUGUACUUACACUAAGUUUAGAUUAUCAC | 0.393 |
| AAGCAUUGAGGAAACUGAAAAAUCUUUGUAAGACCCUUAAUGGCUAAAGCCAUUGGCUGUAAUGAGUGUUACUGUGUGAGGCUUUGUGUAUGAGAUCUGUGCUGUAAGGC | 0.496 |
| AACAAUAGCUGAAUGUCUUGGUAUUUAAAGUGUAAAUUAUCUAUGGCUUUGCCAAAUGAAGGGAGGGGGUGGGCAAGACAUGGAACUCCCCGGUCCCCACACACUUCGCA | 3.07 |
| ACUAACAAACGAUAGCUGAUUGAAGGCAACAGGAAAAAAAAAAUCAAAUUGUCCUACUGACGUUGAAAGCAAACCUUUGUUCAUUCCCAGGGCACUAGAAUGAUCUUUAG | 0.202 |

For quick reference, copied from above (series 1):
| Strand | E-score |
| --- | --- |
| AAGAAACC | -0.122 |
| AGCTACGC | -0.175 |
| AGGCTATG | -0.0372 |
| GAACCTGA | -0.128 |
| AGATTTGC | 0.0745 |
| ACAGTACT | 0.0521 |
| CCAGTCCG | -0.325 |
| CCATACAA | 0.188 |
| AAAGCCTA | 0.0471 |
